Measured values collected from several papers.
Numbers after ± are the reported error.
B1: UGT1A9 (Homo sapiens, UniProt O60656); chain GKLLVVPMDGSHWFTMRSVVEKLILRGHEVVVVMPEVSWQLGRSLNCTVKTYSTSYTLEDLDREFKAFAHAQWKAQVRSIYSLLMGSYNDIFDLFFSNCRSLFKDKKLVEYLKESSFDAVFLDPFDNCGLIVAKYFSLPSVVFARGILCHYLEEGAQCPAPLSYVPRILLGFSDAMTFKERVRNHIMHLEEHLLCHRFFKNALEIASEILQTPVTEYDLYSHTSIWLLRTDFVLDYPKPVMPNMIFIGGINCHQGKPLPMEFEAYINASGEHGIVVFSLGSMVSEIPEKKAMAIADALGKIPQTVLWRYTGTRPSNLANNTILVKWLPQNDLLGHPMTRAFITHAGSHGVYESICNGVPMVMMPLFGDQMDNAKRMETKGAGVTLNVLEMTSEDLENALKAVINDKSYKENIMRLSSLHKDRPVEPLDLAVFWVEFVMRHKGAPHLRPAAHDLTWYQYHSLDVIGFLLAVVLTVAFITFKCCAYGYRKCLGKKGRVKKAHKSKTH

COc1cccc2c1C(=O)c1c(O)c3c(c(O)c1C2=O)C[C@@](O)(C(=O)CO)C[C@@H]3O[C@H]1C[C@H](NC(=O)[C@@H]2CCCN2C(=O)CNC(=O)[C@@H](N)CC(C)C)[C@H](O)[C@H](C)O1  AUC (mouse, E0771 tumour-bearing, kidney; intravenous, 92 µmol/kg PhAc-ALGP-Dox): 3.7 µM·h
rnpA F107W (Bacillus subtilis)  pKa (NMR, item: His22; 25 °C, 0.15 M NaCl, sulfate-bound folded state, numbering of the source, added: 20 mM Na2SO4): 5.95
Insulin human  concentration (ELISA; rat, cerebellum; intranasal, 20 µg per nostril, 120 min): 86.7 ± 81 pg/mg tissue
amyloid-β(1-40)  ΔG° of larger oligomer formation (self-aggregation; without clusterin): -9.39 ± 0.717 kcal/mol
NPH insulin  Cmax (radioimmunoassay, item: insulin; female non-fasted rat, serum; 5 IU/kg, 1 to 24 h, dose 189): 1160 µIU/mL
CSCC[C@H](NC(=O)[C@H](CC(C)C)NC(=O)[C@H](Cc1c[nH]cn1)NC(=O)CNC(=O)[C@@H](NC(=O)[C@H](C)NC(=O)[C@H](Cc1c[nH]c2ccccc12)NC(=O)[C@H](CCC(N)=O)NC(=O)CCCCCNC(=O)[C@H](CCC(=O)NCCCC[C@@H]1NC(=O)[C@@H](Cc2ccc(O)cc2)NC(=O)[C@H](CC(=O)O)NC(=O)CNC(=O)[C@H](CCCNC(=N)N)NC1=O)NC(=O)CN1CCN(CC(=O)O)CCN(CC(=O)O)CC1)C(C)C)C(N)=O [copper-64 labelled]  tissue uptake (ICR SCID mouse, female, spleen; intravenous, 750 kBq, 24 h): 0.63 ± 0.17 %ID/g
CC(C)[C@H](NC(=O)[C@@H]1CCCN1C(=O)[C@H](CCCNC(=N)N)NC(=O)[C@H](CS)NC(=O)[C@H](Cc1c[nH]c2ccccc12)NC(=O)[C@H](CCCNC(=N)N)NC(=O)[C@@H](Cc1ccccc1)NC(=O)[C@H](Cc1c[nH]cn1)NC(=O)[C@H](CCC(=O)O)NC(=O)[C@H](CS)NC(=O)[C@H](CS)NC(=O)[C@H](CCCCN)NC(=O)[C@@H]1CC(=O)N[C@@H](CCCNC(=N)N)C(=O)N[C@@H](C)C(=O)N[C@@H](CC(=O)O)C(=O)N[C@H](Cc2ccc(O)cc2)C(=O)N1)C(N)=O [technetium-99m labelled]  tissue uptake (C57 mice, kidneys; intravenous, 0.037 MBq, 2 h): 93 ± 21.7 %ID/g
CC[C@H](C)[C@H](NC(=O)[C@H](CC(C)C)NC(=O)[C@H](CCCNC(=N)N)NC(C)=O)C(=O)N[C@@H](CCC(=O)O)C(=O)N[C@@H](CC(=O)O)C(=O)N[C@H](C(=O)N[C@H]1CSSC[C@@H](C(=O)N[C@@H](CC(C)C)C(=O)N[C@@H](Cc2c[nH]c3ccccc23)C(=O)N[C@@H](CCC(=O)O)C(=O)N[C@@H](CC(=O)O)C(=O)N[C@@H](CC(=O)O)C(=O)N[C@@H](CCCCNC(=O)CCCCCN2C(=CC=C3CCCC(C=CC4=[N+](CCCCS(=O)(=O)O)c5ccc(S(=O)(=O)[O-])cc5C4(C)C)=C3Oc3ccc(S(=O)(=O)O)cc3)C(C)(C)c3cc(S(=O)(=O)O)ccc32)C(N)=O)NC(=O)CNC(=O)[C@H](Cc2c[nH]c3ccccc23)NC(=O)[C@H](CCCNC(=N)N)NC(=O)[C@@H]2CCCN2C(=O)[C@H](CC(C)C)NC1=O)[C@@H](C)CC  time to maximal fluorescence (NIR fluorescence imaging; C57BL/6 mouse, inguinal lymph node; intradermal, 20 µL, 100 µM): ≤ 2.5 min
B1 (UGT1A9)  Vmax (Oc1ccc2c(c1)OC[C@H]1c3cc4c(cc3O[C@@H]21)OCO4; steady-state kinetics; pH 7.4, 37 °C): 0.000234 µmol/min/mg
COc1cccc2c1C(=O)c1c(O)c3c(c(O)c1C2=O)C[C@@](O)(C(=O)CO)C[C@@H]3O[C@H]1C[C@H](NC(=O)[C@@H]2CCCN2C(=O)CN)[C@H](O)[C@H](C)O1  AUC (mouse, E0771 tumour-bearing, kidney; intravenous, 92 µmol/kg PhAc-ALGP-Dox): 288 µM·h
oxytocin-d5  drug targeting efficiency (rhesus monkey, CSF over plasma; intranasal vs intravenous, 80 IU, 0-60 min): 111%
teriparatide  elimination rate constant (ELISA; healthy women; sc, 20 µg single dose, reference product, arithmetic mean): 1.11 ± 0.331 h⁻¹
insulin lispro  Tmax (radioimmunoassay, item: insulin; type 1 diabetes patients, serum; subcutaneous, dose not given): 49 min
insulin degludec  AUC(13-17 h) (human end-stage renal disease, serum; subcutaneous, 0.4 U/kg, dosed 13 h before hemodialysis): 0.0101 µM·h

A few entries again:
COc1cccc2c1C(=O)c1c(O)c3c(c(O)c1C2=O)C[C@@](O)(C(=O)CO)C[C@@H]3O[C@H]1C[C@H](NC(=O)[C@@H]2CCCN2C(=O)CNC(=O)[C@@H](N)CC(C)C)[C@H](O)[C@H](C)O1  AUC (mouse, E0771 tumour-bearing, kidney; intravenous, 92 µmol/kg PhAc-ALGP-Dox): 3.7 µM·h
